Published values of several laboratories.
Each line is one published result; not all experiments were run side by side. Several values in a cell are separate wells, animals, samples, runs or records. ± marks the error that the study gave.
STK16: Serine/threonine-protein kinase 16 (STK16, Homo sapiens, UniProt O75716)
UniProt O75716, sequence (whole entry, looked up): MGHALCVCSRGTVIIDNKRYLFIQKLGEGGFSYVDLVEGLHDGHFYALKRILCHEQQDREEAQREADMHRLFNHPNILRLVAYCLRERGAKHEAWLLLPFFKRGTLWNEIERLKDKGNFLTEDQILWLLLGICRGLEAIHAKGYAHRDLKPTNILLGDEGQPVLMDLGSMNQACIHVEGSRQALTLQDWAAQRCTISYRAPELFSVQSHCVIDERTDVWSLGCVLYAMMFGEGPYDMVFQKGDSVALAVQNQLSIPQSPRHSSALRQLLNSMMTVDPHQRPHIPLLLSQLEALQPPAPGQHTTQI
rep main protease: Replicase polyprotein 1ab, main protease (rep, Porcine epidemic diarrhea virus, UniProt P0C6Y4)
rep papain-like protease: Replicase polyprotein 1ab, papain-like protease (rep, Porcine epidemic diarrhea virus, UniProt P0C6Y4)
UniProt P50613, sequence (whole entry, looked up): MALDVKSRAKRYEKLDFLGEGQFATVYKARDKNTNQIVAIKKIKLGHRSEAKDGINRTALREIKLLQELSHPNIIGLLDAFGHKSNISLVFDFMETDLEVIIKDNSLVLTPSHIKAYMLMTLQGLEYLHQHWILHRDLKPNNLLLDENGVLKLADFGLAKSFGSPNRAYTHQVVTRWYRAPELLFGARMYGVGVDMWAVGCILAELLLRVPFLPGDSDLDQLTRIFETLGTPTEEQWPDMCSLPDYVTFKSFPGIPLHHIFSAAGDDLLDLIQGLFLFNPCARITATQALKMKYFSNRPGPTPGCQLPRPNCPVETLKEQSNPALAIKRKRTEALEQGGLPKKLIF
UniProt Q09472, sequence (whole entry, looked up): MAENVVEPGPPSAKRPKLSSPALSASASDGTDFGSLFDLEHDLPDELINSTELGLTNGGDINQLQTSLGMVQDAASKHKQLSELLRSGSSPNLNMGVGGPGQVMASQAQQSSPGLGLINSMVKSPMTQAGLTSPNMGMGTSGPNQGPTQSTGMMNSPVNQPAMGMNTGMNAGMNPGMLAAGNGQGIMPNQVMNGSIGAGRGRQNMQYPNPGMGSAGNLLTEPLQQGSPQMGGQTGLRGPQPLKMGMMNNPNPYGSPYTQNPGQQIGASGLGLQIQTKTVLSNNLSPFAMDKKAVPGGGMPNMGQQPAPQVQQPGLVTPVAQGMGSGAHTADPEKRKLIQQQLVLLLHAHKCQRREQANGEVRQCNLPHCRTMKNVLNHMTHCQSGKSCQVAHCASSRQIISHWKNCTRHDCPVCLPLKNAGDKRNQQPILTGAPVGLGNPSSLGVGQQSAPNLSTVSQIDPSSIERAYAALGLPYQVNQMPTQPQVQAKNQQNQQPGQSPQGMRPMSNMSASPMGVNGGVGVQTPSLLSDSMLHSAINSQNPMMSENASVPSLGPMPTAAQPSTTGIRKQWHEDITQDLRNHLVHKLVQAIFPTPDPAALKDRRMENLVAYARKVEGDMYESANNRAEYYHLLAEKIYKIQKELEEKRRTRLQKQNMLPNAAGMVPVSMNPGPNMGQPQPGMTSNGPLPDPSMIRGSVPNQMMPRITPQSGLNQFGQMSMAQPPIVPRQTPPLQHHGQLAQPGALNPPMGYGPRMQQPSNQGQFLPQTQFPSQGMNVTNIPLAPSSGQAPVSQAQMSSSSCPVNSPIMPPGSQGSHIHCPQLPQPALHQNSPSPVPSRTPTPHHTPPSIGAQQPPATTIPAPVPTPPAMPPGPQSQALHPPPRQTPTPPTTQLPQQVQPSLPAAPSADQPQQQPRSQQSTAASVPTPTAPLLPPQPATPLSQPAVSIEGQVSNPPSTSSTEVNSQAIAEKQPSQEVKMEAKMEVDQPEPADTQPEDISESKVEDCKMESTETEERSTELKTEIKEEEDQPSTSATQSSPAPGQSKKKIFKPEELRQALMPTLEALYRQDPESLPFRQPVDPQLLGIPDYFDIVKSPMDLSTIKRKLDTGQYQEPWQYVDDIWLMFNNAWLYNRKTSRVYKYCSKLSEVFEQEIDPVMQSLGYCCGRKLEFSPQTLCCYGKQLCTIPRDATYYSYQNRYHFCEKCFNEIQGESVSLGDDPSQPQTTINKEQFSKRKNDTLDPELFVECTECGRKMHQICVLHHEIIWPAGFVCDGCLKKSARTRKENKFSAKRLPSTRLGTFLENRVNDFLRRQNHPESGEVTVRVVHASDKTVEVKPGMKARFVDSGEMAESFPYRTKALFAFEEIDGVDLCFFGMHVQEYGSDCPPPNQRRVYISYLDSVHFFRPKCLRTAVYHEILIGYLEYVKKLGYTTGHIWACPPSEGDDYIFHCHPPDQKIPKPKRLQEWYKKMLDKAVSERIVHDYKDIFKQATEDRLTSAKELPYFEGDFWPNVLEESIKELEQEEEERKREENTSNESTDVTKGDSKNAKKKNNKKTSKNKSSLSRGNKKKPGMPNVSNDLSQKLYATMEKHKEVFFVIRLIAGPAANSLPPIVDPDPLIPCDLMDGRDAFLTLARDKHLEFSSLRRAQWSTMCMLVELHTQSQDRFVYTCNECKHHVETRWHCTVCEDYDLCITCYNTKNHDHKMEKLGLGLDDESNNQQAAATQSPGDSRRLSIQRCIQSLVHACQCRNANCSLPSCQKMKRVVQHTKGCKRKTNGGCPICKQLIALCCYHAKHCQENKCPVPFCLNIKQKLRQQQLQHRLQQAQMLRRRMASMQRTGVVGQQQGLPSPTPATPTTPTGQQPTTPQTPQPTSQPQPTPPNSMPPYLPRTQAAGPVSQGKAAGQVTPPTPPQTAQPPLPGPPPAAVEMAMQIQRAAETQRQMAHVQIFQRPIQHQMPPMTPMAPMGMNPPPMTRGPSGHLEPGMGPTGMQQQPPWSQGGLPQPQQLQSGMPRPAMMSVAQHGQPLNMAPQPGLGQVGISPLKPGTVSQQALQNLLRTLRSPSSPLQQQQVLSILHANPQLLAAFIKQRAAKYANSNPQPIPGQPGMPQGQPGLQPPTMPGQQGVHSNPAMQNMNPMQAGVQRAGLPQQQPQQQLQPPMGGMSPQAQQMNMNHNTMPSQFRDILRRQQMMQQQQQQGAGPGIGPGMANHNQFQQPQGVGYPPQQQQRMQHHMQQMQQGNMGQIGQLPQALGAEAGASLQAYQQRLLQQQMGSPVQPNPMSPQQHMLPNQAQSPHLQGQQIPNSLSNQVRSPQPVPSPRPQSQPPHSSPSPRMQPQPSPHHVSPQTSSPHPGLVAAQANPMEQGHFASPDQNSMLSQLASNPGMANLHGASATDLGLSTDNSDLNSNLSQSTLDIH
UniProt Q6PHR2, sequence (whole entry, looked up): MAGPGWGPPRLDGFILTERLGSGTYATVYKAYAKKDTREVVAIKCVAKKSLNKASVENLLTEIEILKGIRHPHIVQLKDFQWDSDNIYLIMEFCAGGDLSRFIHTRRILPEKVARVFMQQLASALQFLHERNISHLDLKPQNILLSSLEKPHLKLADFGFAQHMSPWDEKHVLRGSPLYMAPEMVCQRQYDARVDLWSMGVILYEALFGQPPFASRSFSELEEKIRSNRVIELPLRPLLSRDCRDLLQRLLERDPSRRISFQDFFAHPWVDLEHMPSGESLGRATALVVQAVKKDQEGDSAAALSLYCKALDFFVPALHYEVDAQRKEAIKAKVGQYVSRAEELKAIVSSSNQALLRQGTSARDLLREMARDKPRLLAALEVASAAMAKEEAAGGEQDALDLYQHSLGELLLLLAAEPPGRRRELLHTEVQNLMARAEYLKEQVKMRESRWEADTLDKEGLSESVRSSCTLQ
UniProt P25100, sequence (whole entry, looked up): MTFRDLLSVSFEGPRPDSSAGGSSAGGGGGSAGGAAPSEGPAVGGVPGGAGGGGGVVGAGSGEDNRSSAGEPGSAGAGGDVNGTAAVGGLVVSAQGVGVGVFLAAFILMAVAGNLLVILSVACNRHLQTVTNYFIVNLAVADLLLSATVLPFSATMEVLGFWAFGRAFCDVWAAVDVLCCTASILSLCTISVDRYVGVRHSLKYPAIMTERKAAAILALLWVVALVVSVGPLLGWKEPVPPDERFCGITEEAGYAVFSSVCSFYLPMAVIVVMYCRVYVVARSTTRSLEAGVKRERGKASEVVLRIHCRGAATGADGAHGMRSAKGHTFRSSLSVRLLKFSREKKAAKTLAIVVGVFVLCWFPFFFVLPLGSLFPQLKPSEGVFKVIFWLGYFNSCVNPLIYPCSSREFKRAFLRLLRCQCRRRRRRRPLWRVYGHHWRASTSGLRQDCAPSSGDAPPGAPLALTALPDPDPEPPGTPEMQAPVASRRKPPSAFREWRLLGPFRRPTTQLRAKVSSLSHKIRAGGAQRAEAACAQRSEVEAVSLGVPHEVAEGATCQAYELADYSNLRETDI
UniProt P25090, sequence (whole entry, looked up): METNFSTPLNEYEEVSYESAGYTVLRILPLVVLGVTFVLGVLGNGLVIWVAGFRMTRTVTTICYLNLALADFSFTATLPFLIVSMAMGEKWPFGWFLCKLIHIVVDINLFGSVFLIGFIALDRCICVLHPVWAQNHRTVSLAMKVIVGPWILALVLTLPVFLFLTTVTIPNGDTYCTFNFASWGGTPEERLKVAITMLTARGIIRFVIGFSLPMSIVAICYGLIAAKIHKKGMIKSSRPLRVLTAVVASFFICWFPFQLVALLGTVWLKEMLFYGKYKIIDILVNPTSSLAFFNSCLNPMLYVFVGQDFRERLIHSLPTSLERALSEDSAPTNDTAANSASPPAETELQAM
UniProt P54646, sequence (whole entry, looked up): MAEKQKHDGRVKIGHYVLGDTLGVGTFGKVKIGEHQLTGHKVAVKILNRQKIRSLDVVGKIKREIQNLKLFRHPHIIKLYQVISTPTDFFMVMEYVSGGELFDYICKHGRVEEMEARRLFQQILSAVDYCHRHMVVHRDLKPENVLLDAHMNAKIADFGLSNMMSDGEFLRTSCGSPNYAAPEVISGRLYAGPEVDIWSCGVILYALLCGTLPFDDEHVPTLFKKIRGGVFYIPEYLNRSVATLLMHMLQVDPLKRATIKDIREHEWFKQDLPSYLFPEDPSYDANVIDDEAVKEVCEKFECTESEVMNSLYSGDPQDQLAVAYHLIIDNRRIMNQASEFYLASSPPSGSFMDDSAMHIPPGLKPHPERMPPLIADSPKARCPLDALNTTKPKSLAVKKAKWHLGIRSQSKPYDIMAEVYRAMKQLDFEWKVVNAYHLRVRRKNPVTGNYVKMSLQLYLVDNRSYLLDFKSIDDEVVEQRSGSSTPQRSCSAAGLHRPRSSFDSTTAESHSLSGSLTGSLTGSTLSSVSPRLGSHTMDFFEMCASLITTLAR

Compound | tested on | test | system | conditions | how to read | quantity | result
OO | Histone acetyltransferase p300, BHC core (EP300, Homo sapiens, UniProt Q09472) | enzyme activity | – | 1 mM, together with: p300 BHC, without DTT | – | inhibition | 54 ± 10%
COc1c(C#N)ccnc1N1C2CCC1CN(C(=O)c1cccnc1-n1cccn1)C2 | voltage-gated potassium channel | binding | – | 10 µM | – | inhibition | -10.9%
CCN1CCN(Cc2ccc(NC(=O)c3ccc(C)c(Oc4ccnc5[nH]ccc45)c3)cc2C(F)(F)F)CC1 | SMG1 (Homo sapiens, UniProt Q96Q15) | – | A-375 | concentration not given | – | inhibition | -23.4%
Cc1nn(-c2nc3c(F)cc(F)cc3s2)c(O)c1C(c1ccccc1C(=O)O)c1c(C)nn(-c2nc3c(F)cc(F)cc3s2)c1O | CGAS (Homo sapiens, UniProt Q8N884) | enzyme activity, inhibitor, pyrophosphatase-coupled | – | 200 µM, 1.5 h, together with: HT-DNA | – | inhibition | 95.7%
COc1cc(-c2cc(C(C)=O)n3ccccc23)c(OC)cc1Cn1ccnc1 | EP300 (Homo sapiens, UniProt Q09472) | – | – | 1 µM | – | inhibition | 41%
CCCCCCCC(=O)N[C@H](CN1CCCC1)[C@H](O)c1ccc2c(c1)OCCO2 | N-terminal Xaa-Pro-Lys N-methyltransferase 1 (Homo sapiens, UniProt Q9BV86) | SAHH-coupled fluorescence | – | 100 µM | – | inhibition | no inhibition
CN(C)C1CCN(CC#Cc2nn(C3CCCC3)c3nc(NCc4ccccc4)ncc23)C1 (stereo not shown) | Cyclin-dependent kinase 7, with cyclin H, MAT1 (CDK7, Homo sapiens, UniProt P50613) | enzyme activity, inhibitor, Z'-LYTE | – | 10000 nM | – | inhibition | 6%
Cc1c(O)cc2oc3c(c(=O)c2c1O)-c1ccccc1OC3O (stereo not shown) | CDK7 (Homo sapiens, UniProt P50613) | enzyme activity, inhibitor | – | 10 µM | – | inhibition | > 50%
Cc1cc(-c2ccnc3[nH]cc(F)c23)cc(F)c1[C@@]1(O)[C@H](C)CN(C2CCS(=O)(=O)CC2)C[C@@H]1C | STK16 | ATP probe binding, KiNativ, refers to: Lys2 site | HEK293T cell lysate | 10 µM | – | inhibition | 72.6%
O=C(NO)c1ccc(CN2CCCCc3ccccc32)c(F)c1 | ADRA1D (Homo sapiens, UniProt P25100) | radioligand binding, PDSP radioligand binding | – | 10 µM | – | inhibition | -8.56%
Cn1cc(-c2ccc(-c3cncc(Cl)c3N3CCC4(CCNC4=O)CC3)cc2)cn1 | COLO 205 | gene expression, microarray, refers to: PLEKHG2 mRNA | – | concentration not given, 2 h | relative to: untreated cells | log2 fold change | 2.5
O=C(NCc1ccc(O)c(O)c1)c1ccccc1 | rep main protease | enzyme activity, inhibitor, FRET | – | 10 µM | – | inhibition | < 0%
Cc1cc(-c2ccnc3[nH]cc(F)c23)cc(F)c1[C@@]1(O)[C@H](C)CN(C(=O)CN)C[C@@H]1C | STK16 | ATP probe binding, KiNativ, refers to: Lys2 site | HEK293T cell lysate | 0.1 µM | – | inhibition | 17.1%
NC/C(=C\F)COc1cccc(Cn2c(=S)[nH]c(=O)c3[nH]cnc32)c1 | rat central imidazoline I2 receptor | radioligand binding | – | 10 µM | – | inhibition | < 50%
CN1CCN(c2cc(-c3ccncc3)c(-c3ccc4ccccc4c3)nn2)CC1 | FPR2 (Homo sapiens, UniProt P25090) | antagonist, FLIPR | – | 10 µM | – | inhibition | 4.3%
COc1cc(CNC(=O)c2cccc(C#N)c2)cc(Br)c1OC | rep papain-like protease | enzyme activity, FRET | – | concentration not given | – | inhibition | inactive
Cl.Cl.c1cc2cc(C3=NCCN3)ccc2cc1C1=NCCN1 | Rac GTPase-activating protein 1 (Homo sapiens, UniProt Q9H0H5) | GAP activity, malachite green phosphate | – | concentration not given, orthogonal retest | – | inhibition | 68.2%
O=C(O)CCn1cnc2ccccc21 | Protein deacetylase HDAC6, ZnF-UBD domain (HDAC6, Homo sapiens, UniProt Q9UBN7) | – | – | – | – | Kd | > 1000 µM
Cc1ccc(CNC(=O)c2ccccc2)cc1C | rep papain-like protease | enzyme activity, inhibitor, FRET | – | 10 µM | – | inhibition | < 0%
CC[C@@H]1[C@H](F)C(=O)N[C@@H]1COc1nccc2cc(C(N)=O)c(OC)cc12 | STK16 | ATP-site probe binding, ActivX profiling | THP-1 cell lysate | 0.01 mM, Lys1 site | – | inhibition | 10.7%
O=C(O)CCc1nccs1 | Ubiquitin carboxyl-terminal hydrolase 13, ZnF-UBD domain (USP13, Homo sapiens, UniProt Q92995) | – | – | – | – | Kd | 547 µM
COc1cc(C(=O)NS(=O)(=O)c2ccccc2C)ccc1Cc1cn(C)c2ccc(NC(=O)OC3CCCC3)cc12 | Volume-regulated anion channel subunit LRRC8C, part LRRC8A IL1 chimera (LRRC8C, Homo sapiens, UniProt Q8TDW0, E6A) | ion current, inhibitor, whole-cell patch clamp | HCT LRRC8-/- cells | 0.1 µM, +100 mV | – | inhibition | 9.14% and 16.3% and 22.2% and 29.7%
COc1cc2ncnc(Nc3ccc(Oc4ccccc4)c(C)c3C)c2cc1OC | 5'-AMP-activated protein kinase catalytic subunit alpha-2, with beta1 gamma1 (PRKAA2, Homo sapiens, UniProt P54646) | kinase activity, inhibitor | – | 1 µM | – | inhibition | 9%
CCC(CC(=O)NCc1cc(Br)c(OC)c(OC)c1)c1ccccc1 (stereo not shown) | rep main protease | enzyme activity, inhibitor, FRET | – | 10 µM | – | inhibition | < 0%
COc1ccc(F)cc1C(=O)NCc1ccc(-c2nn([C@@H](C)C(F)(F)F)c(N)c2C(N)=O)cc1 | ULK3 (Homo sapiens, UniProt Q6PHR2) | probe binding, competitive chemoproteomics | human PBMCs | 0.1 µM | – | inhibition | 25.6%

For quick reference, copied from above:
Compound | tested on | test | system | conditions | how to read | quantity | result
COc1cc(C(=O)NS(=O)(=O)c2ccccc2C)ccc1Cc1cn(C)c2ccc(NC(=O)OC3CCCC3)cc12 | Volume-regulated anion channel subunit LRRC8C, part LRRC8A IL1 chimera (LRRC8C, Homo sapiens, UniProt Q8TDW0, E6A) | ion current, inhibitor, whole-cell patch clamp | HCT LRRC8-/- cells | 0.1 µM, +100 mV | – | inhibition | 9.14% and 16.3% and 22.2% and 29.7%
CCC(CC(=O)NCc1cc(Br)c(OC)c(OC)c1)c1ccccc1 (stereo not shown) | rep main protease | enzyme activity, inhibitor, FRET | – | 10 µM | – | inhibition | < 0%
Cc1c(O)cc2oc3c(c(=O)c2c1O)-c1ccccc1OC3O (stereo not shown) | CDK7 (Homo sapiens, UniProt P50613) | enzyme activity, inhibitor | – | 10 µM | – | inhibition | > 50%
Cl.Cl.c1cc2cc(C3=NCCN3)ccc2cc1C1=NCCN1 | Rac GTPase-activating protein 1 (Homo sapiens, UniProt Q9H0H5) | GAP activity, malachite green phosphate | – | concentration not given, orthogonal retest | – | inhibition | 68.2%
